# Published values collected from several papers.
# Each numbered part is a random draw from the data of one study; scales do not carry over between parts. Changes are numbered by the printed parent chain.

# Block 1 — effect on: binding; method: phage display NGS; form: peptide; tested at: concentration not given; notes: normalized abundance; baseline: input library
# Target: UDP-N-acetylglucosamine--peptide N-acetylglucosaminyltransferase 110 kDa subunit (OGT, Homo sapiens, UniProt O15294)
# UniProt O15294, sequence (whole entry, looked up): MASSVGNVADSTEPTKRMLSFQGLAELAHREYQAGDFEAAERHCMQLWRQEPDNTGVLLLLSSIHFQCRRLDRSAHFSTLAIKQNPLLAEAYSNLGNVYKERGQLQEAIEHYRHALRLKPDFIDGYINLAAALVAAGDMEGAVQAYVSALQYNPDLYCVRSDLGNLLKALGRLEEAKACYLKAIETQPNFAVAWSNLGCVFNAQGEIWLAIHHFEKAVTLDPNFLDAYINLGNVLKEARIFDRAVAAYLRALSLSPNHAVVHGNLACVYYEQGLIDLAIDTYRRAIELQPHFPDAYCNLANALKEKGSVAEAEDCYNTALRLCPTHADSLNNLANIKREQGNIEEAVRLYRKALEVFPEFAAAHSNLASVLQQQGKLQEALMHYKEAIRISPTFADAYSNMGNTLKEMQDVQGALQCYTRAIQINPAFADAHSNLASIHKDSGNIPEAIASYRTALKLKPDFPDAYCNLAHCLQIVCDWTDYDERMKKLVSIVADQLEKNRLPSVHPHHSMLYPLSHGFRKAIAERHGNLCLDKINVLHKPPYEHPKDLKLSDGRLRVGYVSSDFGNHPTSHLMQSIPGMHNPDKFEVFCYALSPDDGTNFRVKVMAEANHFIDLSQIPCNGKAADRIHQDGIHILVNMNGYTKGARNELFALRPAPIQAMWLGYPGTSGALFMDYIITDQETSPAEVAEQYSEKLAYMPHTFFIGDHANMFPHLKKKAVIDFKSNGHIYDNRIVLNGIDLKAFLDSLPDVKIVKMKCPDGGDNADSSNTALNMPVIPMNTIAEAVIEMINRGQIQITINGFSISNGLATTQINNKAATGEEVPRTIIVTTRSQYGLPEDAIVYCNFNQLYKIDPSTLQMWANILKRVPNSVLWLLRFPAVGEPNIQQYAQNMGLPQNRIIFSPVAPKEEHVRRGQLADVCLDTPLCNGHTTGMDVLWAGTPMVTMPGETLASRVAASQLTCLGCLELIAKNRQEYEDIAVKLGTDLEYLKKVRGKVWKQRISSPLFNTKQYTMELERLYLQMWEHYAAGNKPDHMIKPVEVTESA
Molecule,enrichment fold change
EPRHLYHIHQDHRQT,6.49
VDIGTTYMPFYQITN,9.57
FDHRDYHHYEQFHH,8.85
VHRNSHHSEHHRDFE,6.14
HYRSHHTPTQYYYAN,6.75
HTMWHAEHFTRYDVH,6.01
HFKWYGWSEMDQHTH,19.5
RPITSAYQPSYQIVL,4.38
HDHNKWAVNQHGWHV,8.53

# Block 2 — method: DHFR PCA, dose-response; medium: yeast; notes: Hill fit, mean, not affinity; added: (+)-ABA, dose series; direction: lower = more sensitive
# Target: ABI1, truncated, D143A, DHFR fusion (Arabidopsis thaliana, UniProt P49597)
# Starting sequence: PYL1, truncated, DHFR fusion (Arabidopsis thaliana, UniProt Q8VZS8); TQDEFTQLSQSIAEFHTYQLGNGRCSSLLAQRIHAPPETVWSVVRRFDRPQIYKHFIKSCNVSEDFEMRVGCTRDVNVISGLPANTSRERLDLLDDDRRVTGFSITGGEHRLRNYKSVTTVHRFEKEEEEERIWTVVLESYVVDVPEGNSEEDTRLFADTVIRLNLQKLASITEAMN
Substitution,ABA EC50 [µM]
A175D,1.93
S42A,3.27
R111G,160
H122E,20.8
I12Y,88.1
H55W,8.41
E131C,3.11
R98G,30

# Block 3 — target: CCNF, cyclin fold, Cln2 fusion (human); method: yeast growth competition, sequencing; medium: yeast; notes: strong parent motif; baseline: not given; direction: higher = stronger binding; starting sequence: viral docking peptide; KGVKRKLFAEDSS
Substitution,normalised enrichment score
K4R,8.92
L7W,0.134
V3E,1.27
E10C,7.83
S12M,7.91
F8I,1.34
F8L,2.09
A9I,8.12
L7I,4.8
A9K,7.82
D11M,8.02
E10S,7.42
A9E,7.65
D11C,7.87
E10K,6.63
F8M,2.1
K4D,4
K4L,4.13
V3M,2.72
K4G,5.88
G2P,8.24
L7R,0.65
R5K F8L,0.756
A9D,7.34
L7D,0.289

# Block 4 — target: tungstate, free oxyanion; method: microfluidic competitive inhibition; medium: in vitro, cell-free expressed; tested at: not given; direction: lower = stronger binding
# Notes: derived from inhibition constants, unchanged parent 2230 nM
# Starting sequence: PafA, mature enzyme, eGFP fusion (Elizabethkingia meningoseptica, UniProt Q9KJX5); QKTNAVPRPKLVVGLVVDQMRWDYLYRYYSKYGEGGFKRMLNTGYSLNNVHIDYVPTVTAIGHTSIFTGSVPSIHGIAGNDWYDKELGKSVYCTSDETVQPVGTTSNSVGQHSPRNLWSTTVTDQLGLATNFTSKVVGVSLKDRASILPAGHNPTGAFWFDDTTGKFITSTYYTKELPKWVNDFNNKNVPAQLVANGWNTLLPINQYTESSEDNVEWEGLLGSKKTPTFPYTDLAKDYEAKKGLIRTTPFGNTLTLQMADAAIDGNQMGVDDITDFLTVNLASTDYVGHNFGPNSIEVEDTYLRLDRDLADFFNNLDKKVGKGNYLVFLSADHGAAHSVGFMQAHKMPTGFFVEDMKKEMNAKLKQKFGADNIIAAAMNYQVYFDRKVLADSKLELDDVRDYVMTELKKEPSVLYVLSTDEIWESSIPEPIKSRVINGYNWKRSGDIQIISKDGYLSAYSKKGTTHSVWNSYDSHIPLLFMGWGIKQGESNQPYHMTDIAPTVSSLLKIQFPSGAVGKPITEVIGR
Substitution,oxyanion analog dissociation constant
F276V,1.74 µM
F291V,2.06 µM
A458V,2.68 µM
R400G,2.3 µM
E34G,2.27 µM
A375G,1.83 µM
L256G,1.56 µM
K508V,2.09 µM

# Mixed results
Molecule,partner,method,medium,added,endpoint,result
"Putative uncharacterized protein FLJ42384 (Homo sapiens, UniProt Q6ZVL8)","ANKRD13B (Homo sapiens, UniProt Q86YJ7)",cross-linking MS,cells,BSPNO,cross-linked residues,M1 to I2

# Repeated from above (block 1):
Molecule,enrichment fold change
HFKWYGWSEMDQHTH,19.5
RPITSAYQPSYQIVL,4.38
HYRSHHTPTQYYYAN,6.75
HDHNKWAVNQHGWHV,8.53
